Measurements of several laboratories.
± marks the error that the study gave.
Method: steady-state kinetics
B1: Tcur_2987 W263S (Thermomonospora curvata, UniProt D1A807); chain ACSEERAAGARPSATQTTGTATEPFHGPHQAGIATPPQAHAVFLGLDLRKGTGRKELGRLMRLLTDDARRLTQGRPALADPEPDLAPLPSRLTFTFGFGPGLFKAAGLEKQRPEGLRPLPPFKVDRLEDRWSGGDLLVQICCDDPITLAHALRMTVKDARAFTRVRWVQRGFRRSPGVQSSGATQRNLMGQLDGTVNPVPGTADFDQAVWVQDGPEWLRGGTTLVLRRIRMELEKSDEADPAGKEFAVGRRLTSGAPLTGRHEHDEPDFDAVDSAGFPVIAENAHIRLAHVDSPRLRMLRRPYNYDEGLTADGRSDAGLLFAAYQADIDRQFIPVQRRLDEGGDLLNLWTTPIGSAVFAIPPGCDENGWIGQGLLG
B2: POLK (Homo sapiens, UniProt Q9UBT6); chain MGLNDNKAGMEGLDKEKINKIIMEATKGSRFYGNELKKEKQVNQRIENMMQQKAQITSQQLRKAQLQVDRFAMELEQSRNLSNTIVHIDMDAFYAAVEMRDNPELKDKPIAVGSMSMLSTSNYHARRFGVRAAMPGFIAKRLCPQLIIVPPNFDKYRAVSKEVKEILADYDPNFMAMSLDEAYLNITKHLEERQNWPEDKRRYFIKMGSSVENDNPGKEVNKLSEHERSISPLLFEESPSDVQPPGDPFQVNFEEQNNPQILQNSVVFGTSAQEVVKEIRFRIEQKTTLTASAGIAPNTMLAKVCSDKNKPNGQYQILPNRQAVMDFIKDLPIRKVSGIGKVTEKMLKALGIITCTELYQQRALLSLLFSETSWHYFLHISLGLGSTHLTRDGERKSMSVERTFSEINKAEEQYSLCQELCSELAQDLQKERLKGRTVTIKLKNVNFEVKTRASTVSSVVSTAEEIFAIAKELLKTEIDADFPHPLRLRLMGVRISSFPNEEDRKHQQ
B3: carbamoyl phosphate synthetase large subunit A23K (Escherichia coli, UniProt P00968); chain PKRTDIKSILILGAGPIVIGQKCEFDYSGAQACKALREEGYRVILVNSNPATIMTDPEMADATYIEPIHWEVVRKIIEKERPDAVLPTMGGQTALNCALELERQGVLEEFGVTMIGATADAIDKAEDRRRFDVAMKKIGLETARSGIAHTMEEALAVAADVGFPCIIRPSFTMGGSGGGIAYNREEFEEICARGLDLSPTKELLIDESLIGWKEYEMEVVRDKNDNCIIVCSIENFDAMGIHTGDSITVAPAQTLTDKEYQIMRNASMAVLREIGVETGGSNVQFAVNPKNGRLIVIEMNPRVSRSSALASKATGFPIAKVAAKLAVGYTLDELMNDITGGRTPASFEPSIDYVVTKIPRFNFEKFAGANDRLTTQMKSVGEVMAIGRTQQESLQKALRGLEVGATGFDPKVSLDDPEALTKIRRELKDAGADRIWYIADAFRAGLSVDGVFNLTNIDRWFLVQIEELVRLEEKVAEVGITGLNADFLRQLKRKGFADARLAKLAGVREAEIRKLRDQYDLHPVYKRVDTCAAEFATDTAYMYSTYEEECEANPSTDREKIMVLGGGPNRIGQGIEFDYCCVHASLALREDGYETIMVNCNPETVSTDYDTSDRLYFEPVTLEDVLEIVRIEKPKGVIVQYGGQTPLKLARALEAAGVPVIGTSPDAIDRAEDRERFQHAVERLKLKQPANATVTAIEMAVEKAKEIGYPLVVRPSYVLGGRAMEIVYDEADLRRYFQTAVSVSNDAPVLLDHFLDDAVEVDVDAICDGEMVLIGGIMEHIEQAGVHSGDSACSLPAYTLSQEIQDVMRQQVQKLAFELQVRGLMNVQFAVKNNEVYLIEVNPRAARTVPFVSKATGVPLAKVAARVMAGKSLAEQGVTKEVIPPYYSVKEVVLPFNKFPGVDPLLGPEMRSTGEVMGVGRTFAEAFAKAQLGSNSTMKKHGRALLSVREGDKERVVDLAAKLLKQGFELDATHGTAIVLGEAGINPRLVNKVHEGRPHIQDRIKNGEYTYIINTTSGRRAIEDSRVIRRSALQYKVHYDTTLNGGFATAMALNADATEKVISVQEMHAQIK
B4: putA N641A (Bradyrhizobium diazoefficiens, UniProt Q89E26); chain MPNIPPPFTAPYAPDDAEIAARLLPASHLSPPQEARIHRTATRLIEAIRKRDDRLGGVEDMLREFALSTKEGLALMVLAEALLRVPDARTADQFIEDKLGEGDFIHHETKSTAFLVNASAWALGLSARVIQPGETPDGTIGRLVKRLGAPAVRTATRQAMRLMGNHFVLGETIEQALERGKPRSGQKTRYSFDMLGEGARTAADARRYFDAYASAIETIGKAAGNHALPDRPGISVKLSALHPRFEAISRARVMVELVPQLLDLAQRAKAHDLNFTVDAEEADRLELSLDVIAATLADPSLKGWDGFGLAIQAYQKRASAVIDYVDALARAHDRKLMVRLVKGAYWDTEIKRAQERGLDGYPVFTRKAMTDLNYVACASKLLALRPRIFPQFATHNALTVATVLEMAEGSSGFEFQRLHGMGEALYEQLAKDHADIAYRTYAPVGSHRDLLAYLVRRLLENGANSSFVAQAADYRVPVPALLQRPADAIVRPQAAAHPRIPLPCDLFAPERRNSRGVEFGARTALDQLLTDVKAETGDLKPIADATPDQAHAAVAAARAGFAGWSRTPAGIRAAALEQAAHLLESRSAHFIALLQREGGKTLDDALSELREAADFCRYYAAQGRKLFGSETAMPGPTGESAALTMRGRGVFVAISPWNFPLAIFLGQVTAALMAGNSVVAKPAEQTPRIAREAVALLHEAGIPKSALYLVTGDGRIGAALTAHPDIAGVVFTGSTEVARSINRALAAKDGPIVPLIAETGGINAMIADATALPEQVADDVVTSAFRSAGQRCSALRLLFVQEDVADRMIEMVAGAARELKIGDPSDVATHVGPVIDVEAKQRLDAHIARMKTEARLHFAGPAPEGCFVAPHIFELTEAGQLTEEVFGPILHVVRYRPENLERVLRAIERTGYGLTLGVHSRIDDSIEAIIDRVQVGNIYVNRNMIGAVVGVQPFGGNGLSGTGPKAGGPHYLARFATEQTVTINTAAAGGNAALLAGEE
B5: protein (UniProt A0A4Y6I1D9); chain MTLDEKPRKFDGLDIEGVAFAASVTALGAAKPLALGGAGDRGLEINGNYIKFTAIGIYVEDGIIPHLSPKLRGKTVEELCEKELLFEEVISAPFEKLVRVVFLVPLTGIQYSEKVLERISVQSLFTDIKEEHKQQFLEIFKGESFPPRSSVILSFSKEGLKVAFAKGDDVPSKAVGTIEDATFADAVLATIIWKEGVSPAAKVSLAERLSKCL
B6: TylM1 H123A (Streptomyces fradiae, UniProt P95748); chain MAHSSATAGPQADYSGEIAELYDLVHQGKGKDYHREAADLAALVRRHSPKAASLLDVACGTGMHLRHLADSFGTVEGLELSADMLAIARRRNPDAVLHHGDMRDFSLGRRFSAVTCMFSSIGALAGQAELDAALERFAAHVLPDGVVVVEPWWFPENFTPGYVAAGTVEAGGTTVTRVSHSSREGEATRIEVHYLVAGPDRGITHHEESHRITLFTREQYERAFTAAGLSVEFMPGGPSGRGLFTGLPGAKGETR
B7: cyc1 F95M (Streptomyces coelicolor, UniProt Q9K499); chain MHAFPHGTTATPTAIAVPPSLRLPVIEAAFPRQLHPYWPKLQETTRTWLLEKRLMPADKVEEYADGLCYTDLMAGYYLGAPDEVLQAIADYSAWMFVWDDRHDRDIVHGRAGAWRRLRGLLHTALDSPGDHLHHEDTLVAGFADSVRRLYAFLPATWNARFARHFHTVIEAYDREFHNRTRGIVPGVEEYLELRRLTFAHWIWTDLLEPSSGCELPDAVRKHPAYRRAALLSQEFAAWYNDLCSLPKEIAGDEVHNLGISLITHHSLTLEEAIGEVRRRVEECITEFLAVERDALRFADELADGTVRGKELSGAVRANVGNMRNWFSSVYWFHHESGRYMVDSWDDRSTPPYVNNEAAGEK
B8: protein (Cecembia lonarensis, UniProt K1KZY4); chain QVQYNPEKPARPEDHKPFFYKYNTRQLYEKFSDDLMQRAANDRKEIEKINQLGKYKPKKQSLDEHEVPEWFRDAKLGIFLDWGPWSVPGYAPPGSEGDTGGSYPDWYEFLMDFTYKAYHDSIWGEDFRRDDFLPLLHGNNFDSEEYAELAVQAGAKYMVPFARHHAGWTMWESKYTFRNAVEMGPKRDILKELVEASRKRDLKFGFYFSIAEWEYPVITKERVSQWDPYEDMAIFHDGMGLIPRPVPLASYFPARHDRMISGKIPVKDYFGDYMMPLFKEGVDLFDPDLVWYDGGWGTPANSSRVPELSAYFYNQAEGRKEVVINNRAGAYLDDSNLLKFNEVLKSGEHDKLLELYMKAEQIGDYLTPEYSIGNVDINEPWEVCRSISPAFGFNWTDNEENSLSSKELVKMFVGIVANNGNLLLVINPDGSGKLSNVQKDRLLDLGQWLKVNGEGIYSTRPWEIQESEGNFFTKSKNGEFIYIHILDKEKTTIEVPNLNPKNKGAISILGSKEKVLWENSGPITRITIPESFKDERNWPNKYGFTLKVAVK
B9: ERAP1 (Homo sapiens, UniProt Q9NZ08); chain MVFLPLKWSLATMSFLLSSLLALLTVSTPSWCQSTEASPKRSDGTPFPWNKIRLPEYVIPVHYDLLIHANLTTLTFWGTTKVEITASQPTSTIILHSHHLQISRATLRKGAGERLSEEPLQVLEHPRQEQIALLAPEPLLVGLPYTVVIHYAGNLSETFHGFYKSTYRTKEGELRILASTQFEPTAARMAFPCFDEPAFKASFSIKIRREPRHLAISNMPLVKSVTVAEGLIEDHFDVTVKMSTYLVAFIISDFESVSKITKSGVKVSVYAVPDKINQADYALDAAVTLLEFYEDYFSIPYPLPKQDLAAIPDFQSGAMENWGLTTYRESALLFDAEKSSASSKLGITMTVAHELAHQWFGNLVTMEWWNDLWLNEGFAKFMEFVSVSVTHPELKVGDYFFGKCFDAMEVDALNSSHPVSTPVENPAQIREMFDDVSYDKGACILNMLREYLSADAFKSGIVQYLQKHSYKNTKNEDLWDSMASICPTDGVKGMDGFCSRSQHSSSSSHWHQEGVDVKTMMNTWTLQKGFPLITITVRGRNVHMKQEHYMKGSDGAPDTGYLWHVPLTFITSKSDMVHRFLLKTKTDVLILPEEVEWIKFNVGMNGYYIVHYEDDGWDSLTGLLKGTHTAVSSNDRASLINNAFQLVSIGKLSIEKALDLSLYLKHETEIMPVFQGLNELIPMYKLMEKRDMNEVETQFKAFLIRLLRDLIDKQTWTDEGSVSERMLRSQLLLLACVHNYQPCVQRAEGYFRKWKESNGNLSLPVDVTLAVFAVGAQSTEGWDFLYSKYQFSLSSTEKSQIEFALCRTQNKEKLQWLLDESFKGDKIKTQEFPQILTLIGRNPVGYPLAWQFLRKNWNKLVQKFELGSSSIAHMVMGTTNQFSTRTRLEEVKGFFSSLKENGSQLRCVQQTIETIEENIGWMDKNFDKIRVWLQSEKLEHDPEADATG
Chain of UniProt P19337 (whole entry, looked up): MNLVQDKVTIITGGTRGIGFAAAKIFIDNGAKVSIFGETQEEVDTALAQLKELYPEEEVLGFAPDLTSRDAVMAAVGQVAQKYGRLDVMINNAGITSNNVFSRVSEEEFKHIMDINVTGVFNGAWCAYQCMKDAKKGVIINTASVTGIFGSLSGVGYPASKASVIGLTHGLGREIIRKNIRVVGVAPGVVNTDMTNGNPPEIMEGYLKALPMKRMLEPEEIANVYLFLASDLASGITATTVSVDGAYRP
Chain of UniProt Q8KHZ8 (whole entry, looked up): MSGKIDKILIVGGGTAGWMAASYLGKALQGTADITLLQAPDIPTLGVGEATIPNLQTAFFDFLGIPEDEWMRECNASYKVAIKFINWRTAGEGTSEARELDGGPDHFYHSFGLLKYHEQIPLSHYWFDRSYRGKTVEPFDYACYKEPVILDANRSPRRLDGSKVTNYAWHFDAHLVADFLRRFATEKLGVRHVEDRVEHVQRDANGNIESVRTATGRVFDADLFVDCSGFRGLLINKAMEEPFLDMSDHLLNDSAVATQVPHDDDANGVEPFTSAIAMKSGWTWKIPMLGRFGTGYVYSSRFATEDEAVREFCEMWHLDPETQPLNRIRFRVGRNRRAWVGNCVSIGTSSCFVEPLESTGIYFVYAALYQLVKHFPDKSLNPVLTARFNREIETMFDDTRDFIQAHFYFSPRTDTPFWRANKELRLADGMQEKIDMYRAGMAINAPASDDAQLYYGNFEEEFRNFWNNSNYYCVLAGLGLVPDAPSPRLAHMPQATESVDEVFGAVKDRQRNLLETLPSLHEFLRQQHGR
Chain of UniProt P14780 (whole entry, looked up): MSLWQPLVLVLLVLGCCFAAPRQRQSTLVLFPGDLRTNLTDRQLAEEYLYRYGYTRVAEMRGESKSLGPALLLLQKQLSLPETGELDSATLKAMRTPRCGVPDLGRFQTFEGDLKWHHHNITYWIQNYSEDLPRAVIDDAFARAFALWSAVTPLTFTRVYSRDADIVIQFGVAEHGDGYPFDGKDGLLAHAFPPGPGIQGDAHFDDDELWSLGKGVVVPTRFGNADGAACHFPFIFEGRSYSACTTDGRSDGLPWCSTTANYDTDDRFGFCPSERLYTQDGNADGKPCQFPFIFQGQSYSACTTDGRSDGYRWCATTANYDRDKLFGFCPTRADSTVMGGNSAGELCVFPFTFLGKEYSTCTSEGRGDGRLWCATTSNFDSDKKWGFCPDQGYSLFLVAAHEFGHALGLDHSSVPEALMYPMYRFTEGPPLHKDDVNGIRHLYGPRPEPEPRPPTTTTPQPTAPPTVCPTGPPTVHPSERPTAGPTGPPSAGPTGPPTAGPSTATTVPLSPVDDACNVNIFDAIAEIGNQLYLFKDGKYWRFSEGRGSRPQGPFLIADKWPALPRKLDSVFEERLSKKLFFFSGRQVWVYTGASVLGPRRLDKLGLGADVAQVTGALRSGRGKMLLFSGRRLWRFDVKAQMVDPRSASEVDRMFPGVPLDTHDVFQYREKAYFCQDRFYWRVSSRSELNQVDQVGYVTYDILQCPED

Substance	substrate	pH	temperature	setting	together with	kcat
BaiA2 (Clostridium scindens, UniProt P19337)	C[C@H](CCC(=O)SCCNC(=O)CCNC(=O)[C@H](O)C(C)(C)COP(=O)(O)OP(=O)(O)OC[C@H]1O[C@@H](n2cnc3c(N)ncnc32)[C@H](O)[C@@H]1OP(=O)(O)O)[C@H]1CC[C@H]2[C@@H]3[C@H](O)C[C@@H]4CC(=O)CC[C@]4(C)[C@H]3C[C@H](O)[C@]12C	pH 8.7	37 °C	–	NADH	0.138 s⁻¹
MMP9 (Homo sapiens, UniProt P14780)	CC(=O)N[C@@H](CCC(N)=O)C(=O)N1CCC[C@H]1C(=O)N[C@@H](CCC(N)=O)C(=O)NCC(=O)N[C@@H](CC(C)C)C(=O)N[C@@H](C)C(=O)N[C@@H](CCCCN)C(N)=O	–	–	–	–	25.4 s⁻¹
B1 (Tcur_2987 W263S)	Nc1c(S(=O)(=O)O)cc(Nc2cccc(S(=O)(=O)CCOS(=O)(=O)O)c2)c2c1C(=O)c1ccccc1C2=O	pH 3	–	sigmoidal kinetics	H2O2 1 mM	51 ± 1 s⁻¹
alanine aminopeptidase (Neisseria meningitidis, UniProt Q9JYV4)	NC(=O)Cc1cc(=O)oc2cc(NC(=O)[C@@H](N)Cc3ccc(Cl)cc3)ccc12	pH 7.5	37 °C	–	–	5.05 ± 0.11 s⁻¹
B2 (POLK)	Nc1ncnc2c1ncn2[C@H]1C[C@H](O)[C@@H](COP(=O)(O)OP(=O)(O)OP(=O)(O)O)O1	pH 7.5	23 °C	MgCl2 5 mM	8-oxoG template	0.012 ± 0.002 s⁻¹
B3	Nc1ncnc2c1ncn2[C@@H]1O[C@H](COP(=O)(O)OP(=O)(O)OP(=O)(O)O)[C@@H](O)[C@H]1O	pH 7.6	–	KCl 100 mM	glutamine 10 mM, ornithine 10 mM	0.28 ± 0.01 s⁻¹
B4 (putA N641A)	O=C(O)[C@@H]1CCCN1	pH 8	23 °C	–	–	2.5 ± 0.4 s⁻¹
B5 (protein)	O=C(/C=C/c1ccc(O)cc1)c1c(O)cc(O)cc1O	–	–	–	–	155 ± 11.8 s⁻¹
B6 (TylM1 H123A)	Cc1cn([C@H]2C[C@H](O)[C@@H](COP(=O)(O)OP(=O)(O)O[C@H]3O[C@H](C)[C@@H](O)[C@H](N)[C@H]3O)O2)c(=O)[nH]c1=O	–	25 °C	–	SAM	0.046 ± 0.001 s⁻¹
rebH (Lentzea aerocolonigenes, UniProt Q8KHZ8)	c1ccc2c3c([nH]c2c1)CNCC3	–	–	–	glucose dehydrogenase regeneration	0.000217 s⁻¹
B7 (cyc1 F95M)	CC(C)=CCC/C(C)=C/CC/C(C)=C/CO[P@@](=O)(O)OP(=O)(O)O	pH 6.5	30 °C	–	MgCl2 10 mM	0.00316 ± 9e-05 s⁻¹
B8 (protein)	O=[N+]([O-])c1ccc(O[C@@H]2OC[C@H](O)[C@@H](O)[C@@H]2O)cc1	pH 5.5	35 °C	substrate inhibition	–	0.94 ± 0.23 s⁻¹
B9 (ERAP1)	CC(C)C[C@H](N)C(=O)N[C@@H](CO)C(=O)N[C@@H](CCCNC(=N)N)C(=O)N[C@@H](Cc1c[nH]cn1)C(=O)N[C@@H](Cc1c[nH]cn1)C(=O)N[C@@H](C)C(=O)N[C@@H](Cc1ccccc1)C(=O)N[C@@H](CO)C(=O)N[C@@H](Cc1ccccc1)C(=O)N[C@@H](CCCNC(=N)N)C(=O)O	–	25 °C	–	–	0.55 ± 0.035 s⁻¹
enzyme (Thermotoga maritima, UniProt Q9WZ18)	Cc1cc2nc3c(=O)[nH]c(=O)nc-3n(C[C@H](O)[C@H](O)[C@H](O)COP(=O)(O)OP(=O)(O)OC[C@H]3O[C@@H](n4cnc5c(N)ncnc54)[C@H](O)[C@@H]3O)c2cc1C	pH 7	80 °C	apparent, cofactor varied	–	54 s⁻¹
